Measurements from different studies.
Every numbered part comes from another study and shows a few of its results, in no order. Substitutions count along the parent as printed.

Study 1
Target: CCNE1, cyclin fold, Cln2 fusion (human)
Technique: yeast growth competition, sequencing
Matrix: yeast
Notes: weak parent motif
Baseline: not given
Direction: higher = stronger binding
Starting sequence: RP1L1 docking peptide (human); TLGLGPLSFTLED
Change | normalised enrichment score
TAGLGPLSFTLED [L2A] | 0.208
TLGLGPASFTLED [L7A] | 0.00462
ALGLGPLSFTLED [T1A] | 0.0685
TLGLGPLSFTLEA [D13A] | 0.385
TLGLGPLSFTLAD [E12A] | 0.211
TLGLGPLSATLED [F9A] | 0.107

Study 2
Target: Phosphate system positive regulatory protein PHO4, full length, GST-tagged (PHO4, Saccharomyces cerevisiae, UniProt P07270, residues 1-312)
Technique: competition protein-binding microarray
Form: double-stranded DNA, one strand shown
Matrix: in vitro
Concentration: 2 µM
Notes: whole 60-bp probe, lowest competitor level
With: Cbf1 competitor, 0.05 µM
Direction: higher = stronger binding
Residues (chain): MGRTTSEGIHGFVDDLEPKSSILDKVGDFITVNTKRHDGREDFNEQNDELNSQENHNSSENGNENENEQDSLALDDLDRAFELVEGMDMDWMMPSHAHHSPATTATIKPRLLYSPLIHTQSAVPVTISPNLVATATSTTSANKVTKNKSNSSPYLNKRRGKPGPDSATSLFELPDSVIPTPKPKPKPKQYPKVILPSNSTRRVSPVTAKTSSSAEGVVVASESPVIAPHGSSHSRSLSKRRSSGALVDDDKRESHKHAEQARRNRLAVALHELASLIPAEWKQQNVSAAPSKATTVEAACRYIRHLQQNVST
Sequence | fluorescence intensity
CCACTGCCACTATTGCACGTAACGCCATTTTTCCAAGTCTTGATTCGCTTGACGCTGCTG | 6200 a.u.
CAGTACATTGAAAAGCACGTGACGGAACACCAACTTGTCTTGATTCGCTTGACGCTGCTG | 17600 a.u.
AAAGCGGTAATTTGTCACGCTACTTCACATATCTATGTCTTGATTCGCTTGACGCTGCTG | 6050 a.u.
AAGAGCTTTCTATTACATGTGGGAAGACTAATATAGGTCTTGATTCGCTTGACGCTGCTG | 9620 a.u.
CGGGGTTAAGTTTGAGATGTGGGTGGCTTGCAGCAGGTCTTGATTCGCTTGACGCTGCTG | 4590 a.u.
TCGGCTTGCAGATCGCACGCACTCAGAGTACGAAATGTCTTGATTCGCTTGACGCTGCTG | 7590 a.u.
CGCGCTGCTCTAAGCACCGTGGGTAGGCCATGAAATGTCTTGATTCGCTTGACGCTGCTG | 8270 a.u.
GTCTTGTCTCATTTTCACGTGGACTTCCCCACTTCAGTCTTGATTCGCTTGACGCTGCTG | 11100 a.u.
AAAGCGGTAATTTGCCTCGTGGGTGCAGATATCTATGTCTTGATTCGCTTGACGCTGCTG | 12400 a.u.
TCGTCCCGTACCGACCACGTGTTTTCCACCTGTAATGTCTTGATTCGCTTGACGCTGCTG | 18500 a.u.
AACTTAGCACCATCGCGCGTGCATCGCTGTATGTGTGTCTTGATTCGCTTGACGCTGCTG | 12700 a.u.
TGATGAGGACACCAACACGTGCAAACATGGTAGTGCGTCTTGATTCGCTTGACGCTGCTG | 15600 a.u.
AAATTACTAAGTTGTCACCAAACTTACCCCGTATGAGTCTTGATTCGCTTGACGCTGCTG | 3080 a.u.
CAGACGGGAAGCAGGCGCGTGCTGGCGGTGACCTGGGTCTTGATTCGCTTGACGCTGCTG | 10200 a.u.
CGTCCTAGTGATTTTCACGTGGATTCCATGAGGAAGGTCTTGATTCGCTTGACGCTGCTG | 12100 a.u.
CCAATCTGGGCAAAGCGCGTGAAGATCAAGACTCGCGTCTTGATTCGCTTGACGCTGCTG | 4500 a.u.
GGATGTCTTGTTTAGCACGTGACGGAGAACTGTGGCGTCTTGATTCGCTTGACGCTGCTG | 15100 a.u.

Study 3
Target: Histone acetyltransferase KAT6A, winged helix 1, GST fusion (KAT6A, Homo sapiens, UniProt Q92794, residues 1-85)
Technique: protein binding microarray
Form: double-stranded DNA, one strand shown
Matrix: in vitro
Concentration: not given
Notes: 8-mer, flanks averaged, mean of 2 arrays, mostly near background
Baseline: not given
Direction: higher = stronger binding
Target sequence (chain): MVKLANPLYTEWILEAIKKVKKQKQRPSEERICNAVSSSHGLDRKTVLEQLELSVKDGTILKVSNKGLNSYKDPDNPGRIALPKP
Sequence | E-score
CACATGCC | 0.0143
AATATACC | -0.135
GAGACTGC | 0.116
ATAAGACC | -0.0654
ACTAAGTA | -0.043
ACCACGTC | -0.102
CTAGGAAC | -0.165
GTATCGAC | 0.151
GCGCACGC | 0.395
TAACTGCA | -0.149
CCGCCAAG | 0.241
AAAAACGT | -0.00213
CCGTCTCA | 0.217
AAATATCT | -0.318
CGAATTAA | -0.204
GTGAGCGA | 0.0836
GTTGCGCA | 0.19
AAGCGGGG | 0.0882
CGTCGTAC | 0.156
ACAACCGC | 0.214
CCAAGAGC | -0.0124
ACGATACA | -0.267
ATGCGCTA | 0.174
CCTGTTGA | -0.224
CCGACACG | 0.0515

Study 4
Target: CEBPD, bZIP domain (human)
Technique: DHFR protein complementation
Matrix: yeast
Notes: single substitutions, most at no-binding floor
Baseline: wild-type JUN-FOS pair
Direction: higher = stronger binding
Starting sequence: JUN, bZIP domain (human); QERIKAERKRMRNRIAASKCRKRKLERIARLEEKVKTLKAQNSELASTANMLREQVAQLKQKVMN; partner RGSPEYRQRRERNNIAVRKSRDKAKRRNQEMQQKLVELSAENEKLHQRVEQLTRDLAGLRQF
Change | binding fitness [natural log]
A57T | -1.42
L52F | -1.27
S43Q | -1.28
A40T | -1.39
A57Q | -1.31
Q55Y | -1.43
S43W | -1.5
K36R | -1.28
S43H | -1.33
A57L | -1.35
L45N | -1.48
S47L | -1.36
E44G | -1.47
V56T | -1.47
R53S | -1.22

Study 5
Target: Prothrombin, mature alpha-thrombin (F2, Homo sapiens, UniProt P00734)
Technique: aptamer microarray, sandwich
Form: DNA with 2'F-ANA
Matrix: in vitro
Concentration: 200 nM
Notes: whole 15-mer aptamer, many near background
With: Cy3 exosite-II aptamer, 400 nM
Direction: higher = stronger binding
Sequence: GGTTGGTGTGGTTGG
Modification | mean fluorescence intensity [a.u.]
2'F-ANA at 1 2 3 6 7 9 10 12 13 14 | 53.9
2'F-ANA at 3 5 7 10 12 15 | 81.7
2'F-ANA at 2 3 5 6 7 11 13 15 | 62.9
2'F-ANA at 1 6 7 12 13 15 | 338
2'F-ANA at 1 3 4 7 8 12 15 | 562
2'F-ANA at 2 4 7 8 10 11 12 13 14 15 | 63.9
2'F-ANA at 1 2 4 5 6 7 9 10 11 13 15 | 76.8
2'F-ANA at 1 2 5 6 7 9 10 11 13 14 15 | 65.2
2'F-ANA at 1 2 3 5 6 7 8 9 13 15 | 56.4
2'F-ANA at 7 8 10 11 14 | 116
2'F-ANA at 3 11 13 14 15 | 604
2'F-ANA at 2 3 5 6 8 9 11 14 | 52.3
2'F-ANA at 1 2 4 6 9 12 13 14 15 | 52.6
2'F-ANA at 2 3 8 9 10 13 14 | 287
2'F-ANA at 1 3 6 8 12 14 15 | 113
2'F-ANA at 1 3 5 11 13 15 | 86.4
2'F-ANA at 2 3 4 5 6 7 9 11 13 15 | 65.7
2'F-ANA at 3 6 10 11 12 13 14 | 392
2'F-ANA at 1 3 6 7 8 9 15 | 298
2'F-ANA at 4 6 9 15 | 250

Study 6
Target: RNA binding protein fox-1 homolog 2, RRM domain, GST-SBP tag (RBFOX2, Homo sapiens, UniProt O43251-10, residues 100-194)
Technique: RNA Bind-n-Seq
Form: RNA
Matrix: in vitro
Concentration: 365 nM
Notes: natural RNA segment, single round, ends assumed
Baseline: no-protein control
Direction: higher = stronger binding
Residues (chain): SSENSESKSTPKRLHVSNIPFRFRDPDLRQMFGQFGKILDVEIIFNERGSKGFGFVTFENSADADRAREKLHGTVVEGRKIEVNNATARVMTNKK
Sequence | RBNS enrichment (R)
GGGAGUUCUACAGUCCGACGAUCUGGCUCUGGGGAGAUUUCUAGUAACUCUUCAAUCUGUACUUUCUGUGCCCGCCUCGGUUUUGAGUUGCAUUUUUUUUUUCUGUUGUUAGACAAACCAGGGCUUUGUAUGCUGGAAUUCUCGGGUGCCAA | 2.48
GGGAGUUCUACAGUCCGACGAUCCCCUGACAAACAACAGGUGGCAUCUGGUGUGCUGUUCUUGAGUUUUCGUUUAGGAUUAGUUGAGUUCCAGCUGGGUUUUGGGAGAAAGGAGAUGCUACCAAGUCUUGGAUUGGAAUUCUCGGGUGCCAA | 0.767
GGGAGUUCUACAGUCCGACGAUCAGCCGGAGGAGGCUGAAGACAUCAAGAAUAAACGAGGGCAGGAGUGGCGGAGCAUUGCCUUUCUAAGAACUGUGACUGUGGCCCAUCGAGACCUAGCCUGGUUUUCCCUUUGGAAUUCUCGGGUGCCAA | 0.883
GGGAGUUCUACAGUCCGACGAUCCGGAGCAGUUGGCCUGUGCUUGGAGGCCUCAGAUAGACCUGUGACCUGGUCUGGUCAGGCAAUGCCCUGCGGCUCUGGAAAGCAACUUCAUCCCAGCUGCUGAGGCGAAAUGGAAUUCUCGGGUGCCAA | 1.03
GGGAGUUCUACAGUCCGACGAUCGUGUCUAUAGGUACAGCCCGCUCUGGCUGCUGCCAGGUGGGCCCCUGCCAGGGGUCCUCACCCCUGUCCACCCUGUGCCUGGCUGUCCCUGCACCCAGAUACAGCAACAUUGGAAUUCUCGGGUGCCAA | 0.186
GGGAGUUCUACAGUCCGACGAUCUGCUAGGGUCUCCUAGCCCAGUAAGCCAAAUGGGAACUAUAAGCAGAUCAAAAUUUUACACUAGCUUAUUAGAGCCCUAUUAGUUCCUGUCCCAAGUUCUUCAGUUACAAUGGAAUUCUCGGGUGCCAA | 0.297
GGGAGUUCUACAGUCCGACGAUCCAGUUAAGUUCCACCCAGUAGUCAGUCCCCUUUGUAGUUAGUGGGAUUAUUUGAUAAUUGGUUAGAUCAUACUUGUAAAUUUUAAUGCUUUGUGUAAUUGGUUUGAAAAAUGGAAUUCUCGGGUGCCAA | 0.417
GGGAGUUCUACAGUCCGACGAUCCUGCAUGUGUGCACACACACACAUCUUAGAUACACAAAAAGAAAUGUUCAGAUUCCUUUGAGAAUUUCAAAUGAAAAAUAAUCUUUCUGUAUGUGGUGUCUAACAUCUACUGGAAUUCUCGGGUGCCAA | 0.388
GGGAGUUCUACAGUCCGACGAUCAUGGAUUUCAUGUGUUACAAUAUCAGUUUCCAGAAUAAAGUGAGGGAAAUCAGGUCUUUAUUGAUAAAGUUAGGGAGAAGAUUGAUGCAAUAGGACAAUUUCCAAUUUAAUGGAAUUCUCGGGUGCCAA | 0.851
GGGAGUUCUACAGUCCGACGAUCAAGAUUGUCAGCUUCAGUAUUCAUGUUCCAUCGUGUCAUCUGGGUCUGUUAGUGUAGUGACCCUCAGUGCAGUCUGUCCCAGCGUUUACGUCCUUGCUUCCUCUGAGCAGUGGAAUUCUCGGGUGCCAA | 0.344
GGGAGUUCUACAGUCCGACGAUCAUCUCAGGCAAUCGAGACAGAGAGAGCCAGCAAGGGCUGGUACCUGAGGUCAUAUUUCAGACACCCACCUGACCCUGCCACUCACAGCCGUCGUUUGUUUUCCAUGGAUGUGGAAUUCUCGGGUGCCAA | 0.352
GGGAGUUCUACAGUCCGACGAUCGUUAUUUAAUUUACUGACUGAAAUCCAAUUUGGAAUUUGGUAGCAGUUAAUUCAAGCCAAUUUUUUUUGUUUCUUCAUUUCCCCUCCCCCAAUCCAUGAAAGCCUAAAUGUGGAAUUCUCGGGUGCCAA | 0.939

Excerpt of the above (study 5):
Modification | mean fluorescence intensity [a.u.]
2'F-ANA at 2 3 4 5 6 7 9 11 13 15 | 65.7
2'F-ANA at 1 3 4 7 8 12 15 | 562
2'F-ANA at 3 11 13 14 15 | 604
2'F-ANA at 2 4 7 8 10 11 12 13 14 15 | 63.9
2'F-ANA at 1 2 3 6 7 9 10 12 13 14 | 53.9
2'F-ANA at 1 2 4 6 9 12 13 14 15 | 52.6
2'F-ANA at 2 3 5 6 7 11 13 15 | 62.9
2'F-ANA at 7 8 10 11 14 | 116
2'F-ANA at 3 5 7 10 12 15 | 81.7
2'F-ANA at 1 3 6 8 12 14 15 | 113
2'F-ANA at 1 2 5 6 7 9 10 11 13 14 15 | 65.2
2'F-ANA at 1 2 3 5 6 7 8 9 13 15 | 56.4
2'F-ANA at 1 3 6 7 8 9 15 | 298
